Assay results of several laboratories.
Compare with care: the assays were run in different laboratories. Values joined by “and” are separate records of one study, mostly repeats; a detail may differ. ± marks the error that the study gave.
UniProt Q9UH17, sequence (whole entry, looked up): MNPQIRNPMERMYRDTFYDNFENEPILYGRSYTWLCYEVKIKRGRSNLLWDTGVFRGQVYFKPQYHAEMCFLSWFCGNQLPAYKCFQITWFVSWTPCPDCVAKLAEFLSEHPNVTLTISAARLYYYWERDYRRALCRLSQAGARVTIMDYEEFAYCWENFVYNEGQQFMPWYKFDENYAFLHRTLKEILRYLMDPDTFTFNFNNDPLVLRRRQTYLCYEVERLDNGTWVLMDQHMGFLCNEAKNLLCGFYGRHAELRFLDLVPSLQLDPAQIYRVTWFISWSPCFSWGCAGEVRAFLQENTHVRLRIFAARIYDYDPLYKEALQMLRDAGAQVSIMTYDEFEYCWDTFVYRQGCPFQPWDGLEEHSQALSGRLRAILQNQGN
UniProt P07949, sequence (whole entry, unmodified, looked up): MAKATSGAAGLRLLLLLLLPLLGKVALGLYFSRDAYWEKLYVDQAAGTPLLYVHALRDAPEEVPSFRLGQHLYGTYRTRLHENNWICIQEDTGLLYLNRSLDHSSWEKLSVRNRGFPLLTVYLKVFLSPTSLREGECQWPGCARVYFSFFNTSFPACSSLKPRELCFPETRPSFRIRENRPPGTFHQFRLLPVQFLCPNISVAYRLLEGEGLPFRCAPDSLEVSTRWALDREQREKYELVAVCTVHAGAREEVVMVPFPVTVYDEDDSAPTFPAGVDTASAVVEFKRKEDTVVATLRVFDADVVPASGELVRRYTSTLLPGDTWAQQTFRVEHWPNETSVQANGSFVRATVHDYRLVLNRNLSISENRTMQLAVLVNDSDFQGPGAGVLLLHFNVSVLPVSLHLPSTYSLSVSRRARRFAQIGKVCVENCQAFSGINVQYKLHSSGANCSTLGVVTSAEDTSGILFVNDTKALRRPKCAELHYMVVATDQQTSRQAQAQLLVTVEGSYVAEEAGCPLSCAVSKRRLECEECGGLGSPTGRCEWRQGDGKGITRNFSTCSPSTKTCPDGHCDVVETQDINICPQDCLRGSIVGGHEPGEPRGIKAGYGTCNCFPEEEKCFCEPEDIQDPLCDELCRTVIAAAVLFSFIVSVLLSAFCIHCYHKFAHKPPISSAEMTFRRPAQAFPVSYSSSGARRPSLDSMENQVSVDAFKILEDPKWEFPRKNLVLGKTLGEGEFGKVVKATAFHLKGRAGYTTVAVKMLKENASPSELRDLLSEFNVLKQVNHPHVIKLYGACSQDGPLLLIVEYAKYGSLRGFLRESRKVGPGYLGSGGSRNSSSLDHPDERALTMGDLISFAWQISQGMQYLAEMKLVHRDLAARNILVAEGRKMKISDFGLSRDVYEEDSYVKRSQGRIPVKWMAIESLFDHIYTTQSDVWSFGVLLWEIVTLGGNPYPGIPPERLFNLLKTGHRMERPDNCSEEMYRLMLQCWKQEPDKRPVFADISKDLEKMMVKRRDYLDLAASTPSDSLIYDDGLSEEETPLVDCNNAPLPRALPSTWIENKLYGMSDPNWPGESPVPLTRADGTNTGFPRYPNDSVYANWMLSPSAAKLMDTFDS
UniProt Q99LR1, sequence (whole entry, looked up): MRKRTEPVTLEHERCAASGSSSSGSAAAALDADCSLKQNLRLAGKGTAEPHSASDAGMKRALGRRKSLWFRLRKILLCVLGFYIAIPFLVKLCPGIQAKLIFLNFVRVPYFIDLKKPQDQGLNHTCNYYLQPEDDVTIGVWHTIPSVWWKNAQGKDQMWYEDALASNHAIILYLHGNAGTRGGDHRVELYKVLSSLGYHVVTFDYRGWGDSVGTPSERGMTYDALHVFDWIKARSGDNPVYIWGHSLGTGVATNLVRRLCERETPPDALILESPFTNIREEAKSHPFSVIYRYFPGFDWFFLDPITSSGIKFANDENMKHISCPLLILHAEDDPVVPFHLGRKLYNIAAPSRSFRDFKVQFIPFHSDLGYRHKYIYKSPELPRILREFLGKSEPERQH
UniProt P31944, sequence (whole entry, looked up): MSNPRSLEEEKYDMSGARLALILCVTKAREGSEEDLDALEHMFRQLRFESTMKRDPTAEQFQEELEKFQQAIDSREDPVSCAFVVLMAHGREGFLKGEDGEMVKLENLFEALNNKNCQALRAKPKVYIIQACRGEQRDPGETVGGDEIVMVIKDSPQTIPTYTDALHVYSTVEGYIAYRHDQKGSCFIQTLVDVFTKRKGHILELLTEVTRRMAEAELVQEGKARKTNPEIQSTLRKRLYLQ
UniProt Q5TCX8, sequence (whole entry, looked up): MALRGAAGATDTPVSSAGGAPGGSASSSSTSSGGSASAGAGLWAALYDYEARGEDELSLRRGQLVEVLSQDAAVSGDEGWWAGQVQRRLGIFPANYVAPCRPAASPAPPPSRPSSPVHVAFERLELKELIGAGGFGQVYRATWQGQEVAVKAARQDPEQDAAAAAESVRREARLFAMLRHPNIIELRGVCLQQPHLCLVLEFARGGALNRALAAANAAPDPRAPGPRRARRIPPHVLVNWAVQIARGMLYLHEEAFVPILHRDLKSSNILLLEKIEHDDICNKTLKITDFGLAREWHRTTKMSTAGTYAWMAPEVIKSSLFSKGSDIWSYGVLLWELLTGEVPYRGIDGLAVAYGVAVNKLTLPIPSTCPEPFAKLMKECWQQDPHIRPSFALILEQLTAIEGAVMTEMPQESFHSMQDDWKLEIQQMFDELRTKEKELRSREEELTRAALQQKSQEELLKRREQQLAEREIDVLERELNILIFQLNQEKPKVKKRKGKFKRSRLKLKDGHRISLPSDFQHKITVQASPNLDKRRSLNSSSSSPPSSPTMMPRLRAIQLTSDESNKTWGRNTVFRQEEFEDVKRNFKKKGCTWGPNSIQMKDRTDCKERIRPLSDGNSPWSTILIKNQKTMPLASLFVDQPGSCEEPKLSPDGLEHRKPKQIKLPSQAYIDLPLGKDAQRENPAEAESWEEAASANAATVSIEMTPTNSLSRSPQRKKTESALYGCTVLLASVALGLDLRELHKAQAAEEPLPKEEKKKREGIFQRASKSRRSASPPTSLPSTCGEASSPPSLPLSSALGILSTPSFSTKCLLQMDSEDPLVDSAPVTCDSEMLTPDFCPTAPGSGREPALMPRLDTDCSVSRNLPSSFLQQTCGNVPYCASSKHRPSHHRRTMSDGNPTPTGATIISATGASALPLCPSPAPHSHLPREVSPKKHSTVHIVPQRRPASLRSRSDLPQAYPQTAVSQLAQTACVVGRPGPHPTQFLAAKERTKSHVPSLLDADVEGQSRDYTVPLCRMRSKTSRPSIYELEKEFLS
UniProt P41145, sequence (whole entry, looked up): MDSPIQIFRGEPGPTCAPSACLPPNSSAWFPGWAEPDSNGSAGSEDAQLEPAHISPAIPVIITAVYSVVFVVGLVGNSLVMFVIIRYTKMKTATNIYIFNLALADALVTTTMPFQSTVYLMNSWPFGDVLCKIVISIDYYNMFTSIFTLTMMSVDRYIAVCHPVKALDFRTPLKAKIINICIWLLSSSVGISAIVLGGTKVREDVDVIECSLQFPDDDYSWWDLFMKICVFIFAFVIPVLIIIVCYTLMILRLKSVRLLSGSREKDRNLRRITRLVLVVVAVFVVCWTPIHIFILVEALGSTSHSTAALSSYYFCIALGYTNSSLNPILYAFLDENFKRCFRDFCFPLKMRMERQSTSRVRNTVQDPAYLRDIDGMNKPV
UniProt Q8IW41, sequence (whole entry, looked up): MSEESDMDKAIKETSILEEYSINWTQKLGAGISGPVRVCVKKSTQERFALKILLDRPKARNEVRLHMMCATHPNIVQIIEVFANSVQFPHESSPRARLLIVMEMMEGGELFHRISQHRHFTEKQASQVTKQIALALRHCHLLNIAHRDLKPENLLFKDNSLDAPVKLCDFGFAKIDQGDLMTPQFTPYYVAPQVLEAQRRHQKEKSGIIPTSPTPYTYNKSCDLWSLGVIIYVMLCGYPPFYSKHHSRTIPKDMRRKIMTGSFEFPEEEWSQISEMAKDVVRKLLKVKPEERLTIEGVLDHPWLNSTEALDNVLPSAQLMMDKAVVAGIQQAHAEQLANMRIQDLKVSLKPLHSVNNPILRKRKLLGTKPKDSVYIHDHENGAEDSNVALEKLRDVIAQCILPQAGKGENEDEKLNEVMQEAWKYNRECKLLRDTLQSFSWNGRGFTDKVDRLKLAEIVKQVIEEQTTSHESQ
UniProt P0A988, sequence (whole entry, unmodified, looked up): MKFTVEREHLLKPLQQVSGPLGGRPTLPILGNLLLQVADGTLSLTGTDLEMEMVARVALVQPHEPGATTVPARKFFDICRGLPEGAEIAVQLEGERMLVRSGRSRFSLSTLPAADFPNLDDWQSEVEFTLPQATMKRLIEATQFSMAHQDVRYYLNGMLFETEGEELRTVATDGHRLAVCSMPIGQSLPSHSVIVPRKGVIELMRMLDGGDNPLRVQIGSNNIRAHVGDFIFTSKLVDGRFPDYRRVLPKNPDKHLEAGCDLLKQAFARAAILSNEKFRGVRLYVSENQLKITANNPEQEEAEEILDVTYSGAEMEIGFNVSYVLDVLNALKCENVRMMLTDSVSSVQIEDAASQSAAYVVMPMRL
UniProt Q96GW9, sequence (whole entry, looked up): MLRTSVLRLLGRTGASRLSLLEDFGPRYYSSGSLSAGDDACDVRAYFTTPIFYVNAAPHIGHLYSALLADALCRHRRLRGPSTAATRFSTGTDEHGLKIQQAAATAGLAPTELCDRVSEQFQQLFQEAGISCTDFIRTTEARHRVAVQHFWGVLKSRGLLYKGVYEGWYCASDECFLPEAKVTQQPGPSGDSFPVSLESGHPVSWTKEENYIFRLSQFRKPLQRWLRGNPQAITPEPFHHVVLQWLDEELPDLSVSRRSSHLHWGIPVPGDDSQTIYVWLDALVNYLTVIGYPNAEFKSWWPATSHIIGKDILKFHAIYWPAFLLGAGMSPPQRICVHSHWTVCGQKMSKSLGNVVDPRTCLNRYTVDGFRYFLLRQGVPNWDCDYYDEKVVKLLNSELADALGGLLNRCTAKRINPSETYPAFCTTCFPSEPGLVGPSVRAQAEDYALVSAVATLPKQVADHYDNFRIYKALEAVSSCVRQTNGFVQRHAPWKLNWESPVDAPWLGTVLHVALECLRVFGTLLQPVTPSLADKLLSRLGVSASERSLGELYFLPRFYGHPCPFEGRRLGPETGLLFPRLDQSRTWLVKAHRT

CC(C)CC(O)(CC(C)C)c1cn(C(=O)N2CCCC2)nn1 — activity ratio (Abhd12 (Mus musculus, UniProt Q99LR1); enzyme activity, inhibitor, competitive ABPP-SILAC; mouse T-cells; concentration not given, 4 h, treated in situ; reference: DMSO): 1.32
CC[C@H](C)[C@@H]1NC(=O)[C@H](Cc2ccccc2)NC(=O)C[C@H](CC(=O)O)NC(=O)[C@@H](NC(=O)[C@@H](NC(=O)[C@H](CO)NC(=O)[C@@H](N)Cc2ccc(O)cc2)[C@@H](C)O)CSC(=O)[C@H](CCSC)NC1=O — EC50 ratio (agrC (Staphylococcus aureus, UniProt O07911); reporter gene, agonist, β-lactamase reporter; reference: mutant over native AIP-I): ~80 fold
CC(C)(C)C(=O)OCOP(=O)(OCOC(=O)C(C)(C)C)C1CCCN(O)C1=O (stereo not shown) — TGI (HCC 2998): 5.59 µM
COc1ccccc1-c1n[nH]c2nc(NC3CCN(C(=O)Cc4ccc(F)cc4F)CC3)ncc12 — relative abundance (bead binding, competition bead pull-down, measured: LMJF.25.1180; Leishmania donovani axenic amastigote extract; 10 µM; reference: vehicle): 0.81
C=CC(=O)Nc1cc(-c2ccc(C(=O)N3CCCC(O)(CC)C3)cc2)ccc1F (stereo not shown) — unmodified protein (DNA dC->dU-editing enzyme APOBEC-3B, C-terminal domain (Homo sapiens, UniProt Q9UH17); covalent adduct, intact protein MS; 1 h, 1-fold, 25 µM): 100%
CS(C)(=O)=Nc1ccc(-c2ccc(-c3nc4cc(O[C@@H]5CO[C@H]6[C@@H]5OC[C@H]6O)[nH]c4cc3F)cc2)cc1 — inhibition (MAPKAPK5 (Homo sapiens, UniProt Q8IW41); enzyme activity, inhibitor; 10 µM): 6%
CC(C)[C@H]1NC(=O)C[C@H]2/C=C/CCSSC[C@@H](NC1=O)C(=O)N[C@H](Cc1cccc3ccccc13)C(=O)NCC(=O)O2 — inhibition (RET (Homo sapiens, UniProt P07949, Y791F); enzyme activity, inhibitor; 10 µM): 7.5%
CC[C@H](C)[C@H](NC(=O)[C@H](CO)NC(=O)[C@H](Cc1ccc(O)cc1)NC(=O)[C@H](Cc1ccc(O)cc1)NC(=O)[C@H](CC(N)=O)NC(=O)CNC(=O)[C@H](CO)NC(=O)[C@H](Cc1ccc(O)cc1)NC(=O)[C@H](CO)NC(=O)[C@H](CO)NC(=O)[C@H](CC(N)=O)NC(=O)COCCOCCNC(=O)CN1CCN(CC(=O)O)CCN(CC(=O)O)CCN(CC(=O)O)CC1)C(=O)N[C@@H](CC(C)C)C(N)=O [copper-64 labelled] — tissue uptake (dynamic PET; KPC mouse Ptf1a-CreER tdTomato, pancreas; intravenous, 4.6 MBq/mouse, 6.5 min, 84 d after tamoxifen): 12.2 %ID/mL
CC(C)CC(C(=O)N1CC2(CC1C#N)C(=O)Nc1ccccc12)N(C)C(=O)c1cc2c(F)cc(F)c(F)c2[nH]1 (stereo not shown) — Hill slope (Caspase-14 (Homo sapiens, UniProt P31944)): -0.76
CC#CC(=O)NC[C@H](NC(=O)[C@H](CC1CCCCC1)NC(=O)[C@H](CCC(N)=O)NC(C)=O)C(=O)N[C@@H](CC(C)C)C(=O)N[C@@H](Cc1ccccc1)C(=O)O — ΔG (Beta sliding clamp (Escherichia coli, UniProt P0A988); binding, isothermal titration calorimetry; 25 °C): -9.8 kcal/mol
CN(C)[C@H]1C[C@@]23CC[C@@]4(O2)C(=CC[C@]2(C)[C@@H](c5ccc6ccncc6c5)CC[C@H]24)C=C3[C@@H](O)[C@@H]1O — inhibition (MAP3K21 (Homo sapiens, UniProt Q5TCX8); ATP probe labelling, inhibitor, KiNativ profiling; 0.1 µM): 14.9%
Cn1nc(CCN)c(=O)c2c(=O)[nH]c(N)nc21 — melting temperature (folP (Bacteria, UniProt P0AC13); CETSA HiBiT; Escherichia coli, whole cells): 55.7 °C
Clc1cc(Cl)c2c(c1)[C@H](NCCCNc1nc3ncccc3[nH]1)CCO2 — selectivity ratio (MARS2 (Homo sapiens, UniProt Q96GW9); enzyme activity; reference: human IC50 over T. brucei IC50): > 1.8
O=C1NC(=O)c2c1c1cc(F)c[n+]3c1c1c2c2cc(O)ccc2[n]1[Ru-4]312([N]=C=S)[S+]3CC[S+]1CC[S+]2CC3 (stereo not shown) — remaining activity (RET (Homo sapiens, UniProt P07949, V804M); enzyme activity; 100 nM, human enzyme, added: 10 µM ATP; reference: untreated): 5%
C#CCNC(=O)CN(Cc1ccc(-c2ccc(F)c(CN3CCS(=O)(=O)CC3)n2)cc1)C(=O)c1ccc(C2(C(F)(F)F)N=N2)cc1 — photoaffinity enrichment (ABCB1 (Cricetulus griseus, UniProt P21448); chemical proteomics; CHO cells overexpressing CB2; 10 µM; reference: untreated): > 13 fold
Cc1cc(C(=O)Nc2nc3cccc(C)c3n2[C@H]2CCCCN(C(=O)/C=C/CN(C)C)C2)ccn1 — survival (Trypanosoma brucei; CLK1 C215S overexpressing; 150 x EC50): 2.92% and 0.396% and 0.209%
O=C(NC1CCN(c2ncnc3[nH]cnc23)CC1)c1cccc(NS(=O)(=O)c2ccc(C(F)(F)F)cc2)c1 — inhibition (Replicase polyprotein 1ab, nsp14 (Human coronavirus OC43, UniProt P0C6X6); enzyme activity; 0.04883 µM): 11.8%
O=C(Cc1ccc(F)c(Cl)c1)N1CCN[C@@H]2COC[C@H](N3CCCC3)[C@H]21 (relative stereo) — loss of binding affinity (OPRK1 (Homo sapiens, UniProt P41145); concentration not given): 4 to 8 fold
O=C1NC2(CC2)COc2ncc(F)cc2[C@H]2COCCN2c2ccn3ncc1c3n2 — serum potassium (Sprague-Dawley rat, male, serum; oral, 5 mg/kg/day, end of treatment, 4-week subacute toxicity): 4.75 ± 0.68 mmol/L

Repeated from above:
CN(C)[C@H]1C[C@@]23CC[C@@]4(O2)C(=CC[C@]2(C)[C@@H](c5ccc6ccncc6c5)CC[C@H]24)C=C3[C@@H](O)[C@@H]1O — inhibition (MAP3K21 (Homo sapiens, UniProt Q5TCX8); ATP probe labelling, inhibitor, KiNativ profiling; 0.1 µM): 14.9%
O=C(Cc1ccc(F)c(Cl)c1)N1CCN[C@@H]2COC[C@H](N3CCCC3)[C@H]21 (relative stereo) — loss of binding affinity (OPRK1 (Homo sapiens, UniProt P41145); concentration not given): 4 to 8 fold
CC(C)(C)C(=O)OCOP(=O)(OCOC(=O)C(C)(C)C)C1CCCN(O)C1=O (stereo not shown) — TGI (HCC 2998): 5.59 µM
